{"data": "Assay results from different studies", "note": "Each numbered part is a random draw from the data of one study; scales do not carry over between parts.", "sequence of UniProt P27361 (whole entry, looked up)": "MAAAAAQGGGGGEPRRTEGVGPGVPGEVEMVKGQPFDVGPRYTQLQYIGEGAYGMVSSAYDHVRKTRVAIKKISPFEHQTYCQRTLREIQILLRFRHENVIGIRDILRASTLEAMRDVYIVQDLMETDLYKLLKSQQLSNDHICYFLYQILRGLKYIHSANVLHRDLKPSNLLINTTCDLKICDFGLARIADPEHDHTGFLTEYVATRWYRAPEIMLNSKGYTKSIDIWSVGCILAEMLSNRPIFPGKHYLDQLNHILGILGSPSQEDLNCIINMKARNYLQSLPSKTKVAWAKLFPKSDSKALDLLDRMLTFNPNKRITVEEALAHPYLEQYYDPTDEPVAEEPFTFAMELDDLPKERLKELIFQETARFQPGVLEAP", "sequence of UniProt Q9BVS4 (whole entry, looked up)": "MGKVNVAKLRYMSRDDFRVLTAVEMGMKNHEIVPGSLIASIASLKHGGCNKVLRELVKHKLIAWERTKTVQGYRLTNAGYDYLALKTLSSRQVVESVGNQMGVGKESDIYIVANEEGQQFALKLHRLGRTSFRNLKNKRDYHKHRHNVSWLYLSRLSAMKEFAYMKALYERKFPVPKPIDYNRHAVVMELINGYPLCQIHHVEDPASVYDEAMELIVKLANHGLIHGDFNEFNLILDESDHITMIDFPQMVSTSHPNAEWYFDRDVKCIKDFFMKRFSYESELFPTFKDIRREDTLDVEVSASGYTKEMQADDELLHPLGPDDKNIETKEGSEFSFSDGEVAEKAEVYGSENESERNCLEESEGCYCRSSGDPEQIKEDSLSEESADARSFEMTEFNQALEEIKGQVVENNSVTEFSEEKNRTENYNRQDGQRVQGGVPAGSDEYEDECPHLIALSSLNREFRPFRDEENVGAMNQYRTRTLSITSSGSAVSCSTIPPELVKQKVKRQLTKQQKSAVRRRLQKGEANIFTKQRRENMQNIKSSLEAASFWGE", "sequence of UniProt Q13470 (whole entry, looked up)": "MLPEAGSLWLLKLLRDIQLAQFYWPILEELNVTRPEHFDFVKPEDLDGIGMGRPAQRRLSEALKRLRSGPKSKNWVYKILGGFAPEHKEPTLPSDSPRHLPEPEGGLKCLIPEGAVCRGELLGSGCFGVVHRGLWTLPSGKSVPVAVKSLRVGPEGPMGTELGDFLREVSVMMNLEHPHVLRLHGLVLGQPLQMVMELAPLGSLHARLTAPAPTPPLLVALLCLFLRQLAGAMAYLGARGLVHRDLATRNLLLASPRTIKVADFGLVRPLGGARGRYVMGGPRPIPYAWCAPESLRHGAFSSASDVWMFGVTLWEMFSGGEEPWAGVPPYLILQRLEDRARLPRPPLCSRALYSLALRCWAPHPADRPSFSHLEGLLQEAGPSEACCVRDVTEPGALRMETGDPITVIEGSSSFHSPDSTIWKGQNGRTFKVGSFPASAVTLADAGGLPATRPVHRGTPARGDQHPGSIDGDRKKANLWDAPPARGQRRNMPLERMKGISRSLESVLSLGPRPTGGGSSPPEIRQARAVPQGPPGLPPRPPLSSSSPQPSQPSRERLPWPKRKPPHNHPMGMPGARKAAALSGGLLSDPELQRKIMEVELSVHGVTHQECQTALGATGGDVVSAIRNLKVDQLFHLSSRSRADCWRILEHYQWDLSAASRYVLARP", "sequence of UniProt P06239 (whole entry, looked up)": "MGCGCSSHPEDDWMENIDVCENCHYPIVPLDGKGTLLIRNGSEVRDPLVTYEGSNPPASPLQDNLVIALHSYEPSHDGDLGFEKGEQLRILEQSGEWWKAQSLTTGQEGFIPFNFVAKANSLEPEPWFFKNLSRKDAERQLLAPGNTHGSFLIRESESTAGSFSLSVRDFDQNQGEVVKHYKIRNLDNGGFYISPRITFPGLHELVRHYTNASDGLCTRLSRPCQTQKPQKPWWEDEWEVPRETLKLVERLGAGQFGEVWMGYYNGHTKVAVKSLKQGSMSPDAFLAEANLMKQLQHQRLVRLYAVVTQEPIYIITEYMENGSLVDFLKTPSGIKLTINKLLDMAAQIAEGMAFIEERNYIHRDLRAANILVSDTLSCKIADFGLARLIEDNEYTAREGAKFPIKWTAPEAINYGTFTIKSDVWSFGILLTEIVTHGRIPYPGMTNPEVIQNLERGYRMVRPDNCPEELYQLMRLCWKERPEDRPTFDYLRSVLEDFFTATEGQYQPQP", "sequence of UniProt P52333 (whole entry, looked up)": "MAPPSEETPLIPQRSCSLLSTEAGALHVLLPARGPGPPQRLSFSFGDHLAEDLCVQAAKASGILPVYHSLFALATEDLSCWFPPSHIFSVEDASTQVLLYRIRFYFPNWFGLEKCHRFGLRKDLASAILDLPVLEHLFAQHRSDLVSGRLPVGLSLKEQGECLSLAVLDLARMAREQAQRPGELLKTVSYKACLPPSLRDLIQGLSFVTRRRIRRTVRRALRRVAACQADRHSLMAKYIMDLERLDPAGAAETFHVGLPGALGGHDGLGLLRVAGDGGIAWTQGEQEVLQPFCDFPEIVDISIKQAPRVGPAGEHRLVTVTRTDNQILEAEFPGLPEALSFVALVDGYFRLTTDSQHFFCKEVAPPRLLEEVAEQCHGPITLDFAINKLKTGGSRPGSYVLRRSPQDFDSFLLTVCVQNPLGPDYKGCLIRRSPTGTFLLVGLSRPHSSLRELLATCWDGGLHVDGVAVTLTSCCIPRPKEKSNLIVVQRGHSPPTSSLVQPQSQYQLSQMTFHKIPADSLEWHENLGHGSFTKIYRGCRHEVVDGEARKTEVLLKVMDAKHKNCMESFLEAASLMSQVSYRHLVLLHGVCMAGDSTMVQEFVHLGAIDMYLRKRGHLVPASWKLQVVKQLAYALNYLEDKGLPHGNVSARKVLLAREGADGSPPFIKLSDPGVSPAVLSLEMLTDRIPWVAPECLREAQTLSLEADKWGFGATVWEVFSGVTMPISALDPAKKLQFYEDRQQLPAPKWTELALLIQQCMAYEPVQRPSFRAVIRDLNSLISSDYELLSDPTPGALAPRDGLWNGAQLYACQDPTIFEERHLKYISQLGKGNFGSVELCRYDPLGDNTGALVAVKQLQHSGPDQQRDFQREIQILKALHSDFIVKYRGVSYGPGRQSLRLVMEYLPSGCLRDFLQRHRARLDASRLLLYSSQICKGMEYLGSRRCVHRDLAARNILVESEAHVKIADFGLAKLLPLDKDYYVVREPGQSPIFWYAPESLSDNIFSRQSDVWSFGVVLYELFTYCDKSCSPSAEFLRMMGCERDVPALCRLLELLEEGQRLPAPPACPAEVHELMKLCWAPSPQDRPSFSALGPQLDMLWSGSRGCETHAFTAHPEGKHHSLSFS", "sequence of UniProt P78368 (whole entry, looked up)": "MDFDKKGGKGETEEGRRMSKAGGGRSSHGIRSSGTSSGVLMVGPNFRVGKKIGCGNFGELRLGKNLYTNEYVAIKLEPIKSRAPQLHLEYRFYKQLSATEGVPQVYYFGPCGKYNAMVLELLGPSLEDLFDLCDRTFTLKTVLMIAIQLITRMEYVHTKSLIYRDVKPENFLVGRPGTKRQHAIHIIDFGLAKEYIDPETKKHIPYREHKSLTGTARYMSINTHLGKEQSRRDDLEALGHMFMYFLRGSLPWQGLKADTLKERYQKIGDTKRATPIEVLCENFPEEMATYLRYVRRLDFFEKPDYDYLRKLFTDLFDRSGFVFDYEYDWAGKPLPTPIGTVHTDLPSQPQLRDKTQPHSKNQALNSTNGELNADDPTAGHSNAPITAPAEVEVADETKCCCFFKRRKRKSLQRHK", "sequence of UniProt Q12866 (whole entry, looked up)": "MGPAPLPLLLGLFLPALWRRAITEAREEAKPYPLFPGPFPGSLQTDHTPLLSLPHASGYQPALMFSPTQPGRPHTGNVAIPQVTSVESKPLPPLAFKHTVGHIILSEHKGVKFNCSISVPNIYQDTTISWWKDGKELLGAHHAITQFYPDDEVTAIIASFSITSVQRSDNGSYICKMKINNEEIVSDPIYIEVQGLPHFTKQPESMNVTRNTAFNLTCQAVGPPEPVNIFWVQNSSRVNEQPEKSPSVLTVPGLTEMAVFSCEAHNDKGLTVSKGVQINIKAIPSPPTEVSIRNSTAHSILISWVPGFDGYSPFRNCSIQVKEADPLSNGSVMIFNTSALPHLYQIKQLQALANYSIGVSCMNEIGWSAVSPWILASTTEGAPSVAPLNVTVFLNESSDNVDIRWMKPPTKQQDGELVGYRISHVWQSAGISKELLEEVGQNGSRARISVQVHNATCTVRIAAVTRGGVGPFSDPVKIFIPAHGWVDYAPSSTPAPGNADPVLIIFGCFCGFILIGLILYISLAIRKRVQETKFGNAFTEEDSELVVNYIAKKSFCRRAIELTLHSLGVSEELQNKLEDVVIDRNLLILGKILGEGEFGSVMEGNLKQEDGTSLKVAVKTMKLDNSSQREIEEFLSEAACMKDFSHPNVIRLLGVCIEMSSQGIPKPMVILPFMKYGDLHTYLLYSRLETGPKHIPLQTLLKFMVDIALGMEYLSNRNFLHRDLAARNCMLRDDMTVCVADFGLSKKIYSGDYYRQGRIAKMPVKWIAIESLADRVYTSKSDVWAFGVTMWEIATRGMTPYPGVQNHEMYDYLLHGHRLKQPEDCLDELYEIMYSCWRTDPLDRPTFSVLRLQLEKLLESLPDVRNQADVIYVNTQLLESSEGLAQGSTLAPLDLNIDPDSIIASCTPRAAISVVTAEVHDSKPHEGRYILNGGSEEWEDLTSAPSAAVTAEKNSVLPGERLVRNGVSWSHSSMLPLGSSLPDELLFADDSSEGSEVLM"}
{"data": "Sample 1", "host": "mouse", "matrix": "microsomes or S9", "concentration": "2 µM", "time": "0.5 h"}
{"Structure (SMILES)": "CC(C)c1nc(NCCc2nnc3ccccn23)nc(N(C)C)n1", "remaining compound [%]": 0.161}
{"Structure (SMILES)": "C(=C\\c1ccc2ccnc(N3CCOCC3)c2c1)/c1ccncc1", "remaining compound [%]": 14.7}
{"Structure (SMILES)": "CC(C)c1cc(C(=O)N2CCC(Oc3ccc(-c4ccc(S(C)(=O)=O)cc4F)nc3)CC2)no1", "remaining compound [%]": 0}
{"Structure (SMILES)": "O=C(COc1ncnc2scc(-c3ccccc3)c12)c1ccc(S(=O)(=O)N2CCCC2)cc1", "remaining compound [%]": 2.59}
{"Structure (SMILES)": "Cc1cc2ncccc2c(Br)c1OS(=O)(=O)C(F)(F)F", "remaining compound [%]": "> 99"}
{"Structure (SMILES)": "Fc1ccc(Nc2cnnc3c(Cl)cccc23)cc1", "remaining compound [%]": 4.47}
{"Structure (SMILES)": "CN(C)Cc1c(N)n(Cc2ccco2)c(=O)[nH]c1=O", "remaining compound [%]": 68.7}
{"Structure (SMILES)": "CCOC(=O)c1c(N)sc2c1CCC(CC)C2 (stereo not drawn)", "remaining compound [%]": 63.2}
{"Structure (SMILES)": "COc1ccc(C2=NN(c3nc4ccccc4s3)C(=O)C2)cc1", "remaining compound [%]": 32.1}
{"data": "Sample 2", "SMILES": "O=C(N1CCS(=O)(=O)CC1)N1C[C@H](c2ccc(OC(F)(F)F)cc2)C[C@H](c2nc(C3CC3)no2)C1", "concentration": "1 µM"}
{"target": "BMPR1A (Homo sapiens, UniProt P36894)", "observed": "binding", "method": "competition with immobilised ligand", "remaining binding": "89%"}
{"target": "CDC42BPG (Homo sapiens, UniProt Q6DT37)", "method": "competition binding", "remaining binding": "100%"}
{"target": "Tyrosine-protein kinase ABL1, non-phosphorylated (ABL1, Homo sapiens, UniProt P00519)", "observed": "cell-free assay", "method": "competition with immobilised ligand", "remaining binding": "84%"}
{"target": "RIOK2 (Homo sapiens, UniProt Q9BVS4)", "observed": "cell-free assay", "method": "competition with immobilised ligand", "remaining binding": "100%"}
{"target": "TNK1 (Homo sapiens, UniProt Q13470)", "observed": "cell-free assay", "method": "competition with immobilised ligand", "remaining binding": "100%"}
{"target": "PIK3C3 (Homo sapiens, UniProt Q8NEB9)", "observed": "cell-free assay", "method": "competition with immobilised ligand", "remaining binding": "100%"}
{"data": "Sample 3", "organism": "Sarcocystis neurona", "observed": "parasite activity", "concentration": "10 µM", "time": "96 h"}
{"SMILES": "CC1=C(CC(=O)O)c2cc(F)ccc2/C1=C\\c1ccc([S+](C)[O-])cc1 (stereo not drawn)", "activity class": "inactive"}
{"SMILES": "CCCCc1oc2ccccc2c1C(=O)c1cc(I)c(OCCN(CC)CC)c(I)c1", "activity class": "inactive"}
{"SMILES": "CC[C@H]1OC(=O)[C@H](C)[C@@H](O[C@H]2C[C@@](C)(OC)[C@@H](O)[C@H](C)O2)[C@H](C)[C@@H](O[C@@H]2O[C@H](C)C[C@H](N(C)C)[C@H]2O)[C@](C)(OC)C[C@@H](C)C(=O)[C@H](C)[C@@H](O)[C@]1(C)O", "activity class": "inactive"}
{"SMILES": "CC1(C)S[C@@H]2[C@H](/N=C/N3CCCCCC3)C(=O)N2[C@H]1C(=O)O", "activity class": "inactive"}
{"SMILES": "Cc1ncc([N+](=O)[O-])n1CCO", "activity class": "inactive"}
{"SMILES": "O=C1NC(=O)C(c2ccccc2)(c2ccccc2)N1", "activity class": "inactive"}
{"SMILES": "CC(=O)OCC(CCn1cnc2cnc(N)nc21)COC(C)=O", "activity class": "inactive"}
{"data": "Sample 4", "Compound": "N#CC(C#N)=C(N)/C(C#N)=C/c1ccc(O)cc1", "observed": "enzyme activity", "action": "inhibitor", "concentration": "0.5 µM", "baseline": "control"}
{"target": "JAK3 (Homo sapiens, UniProt P52333)", "remaining activity [%]": 102}
{"target": "TEK (Homo sapiens, UniProt Q02763)", "remaining activity [%]": 104}
{"target": "FGFR1 (Homo sapiens, UniProt P11362)", "remaining activity [%]": 95.3}
{"target": "CSNK1G3 (Homo sapiens, UniProt Q9Y6M4)", "remaining activity [%]": 100}
{"target": "GSK3B (Homo sapiens, UniProt P49841)", "remaining activity [%]": 89.5}
{"target": "MAP3K14 (Homo sapiens, UniProt Q99558)", "remaining activity [%]": 108}
{"target": "TAOK2 (Homo sapiens, UniProt Q9UL54)", "remaining activity [%]": 97.3}
{"target": "ARAF (Homo sapiens, UniProt P10398)", "remaining activity [%]": 90.8}
{"target": "TBK1 (Homo sapiens, UniProt Q9UHD2)", "remaining activity [%]": 91.1}
{"target": "FRK (Homo sapiens, UniProt P42685)", "remaining activity [%]": 99}
{"target": "MST1R (Homo sapiens, UniProt Q04912)", "remaining activity [%]": 102}
{"target": "MAPK3 (Homo sapiens, UniProt P27361)", "remaining activity [%]": 101}
{"target": "CSNK1G2 (Homo sapiens, UniProt P78368)", "remaining activity [%]": 104}
{"target": "MERTK (Homo sapiens, UniProt Q12866)", "remaining activity [%]": 93.5}
{"target": "LCK (Homo sapiens, UniProt P06239)", "remaining activity [%]": 95.1}
{"target": "GRK7 (Homo sapiens, UniProt Q8WTQ7)", "remaining activity [%]": 104}
{"target": "ULK3 (Homo sapiens, UniProt Q6PHR2)", "remaining activity [%]": 67.8}
{"note": "Repeated from above (sample 3):"}
{"SMILES": "CC[C@H]1OC(=O)[C@H](C)[C@@H](O[C@H]2C[C@@](C)(OC)[C@@H](O)[C@H](C)O2)[C@H](C)[C@@H](O[C@@H]2O[C@H](C)C[C@H](N(C)C)[C@H]2O)[C@](C)(OC)C[C@@H](C)C(=O)[C@H](C)[C@@H](O)[C@]1(C)O", "activity class": "inactive"}
{"SMILES": "CC1(C)S[C@@H]2[C@H](/N=C/N3CCCCCC3)C(=O)N2[C@H]1C(=O)O", "activity class": "inactive"}
{"SMILES": "Cc1ncc([N+](=O)[O-])n1CCO", "activity class": "inactive"}
{"SMILES": "O=C1NC(=O)C(c2ccccc2)(c2ccccc2)N1", "activity class": "inactive"}
